{"data": "Experimental data collected from several papers", "note": "Each numbered part is a random draw from the data of one study; scales do not carry over between parts.", "UniProt Q5XXA6, sequence (whole entry, unmodified, looked up)": "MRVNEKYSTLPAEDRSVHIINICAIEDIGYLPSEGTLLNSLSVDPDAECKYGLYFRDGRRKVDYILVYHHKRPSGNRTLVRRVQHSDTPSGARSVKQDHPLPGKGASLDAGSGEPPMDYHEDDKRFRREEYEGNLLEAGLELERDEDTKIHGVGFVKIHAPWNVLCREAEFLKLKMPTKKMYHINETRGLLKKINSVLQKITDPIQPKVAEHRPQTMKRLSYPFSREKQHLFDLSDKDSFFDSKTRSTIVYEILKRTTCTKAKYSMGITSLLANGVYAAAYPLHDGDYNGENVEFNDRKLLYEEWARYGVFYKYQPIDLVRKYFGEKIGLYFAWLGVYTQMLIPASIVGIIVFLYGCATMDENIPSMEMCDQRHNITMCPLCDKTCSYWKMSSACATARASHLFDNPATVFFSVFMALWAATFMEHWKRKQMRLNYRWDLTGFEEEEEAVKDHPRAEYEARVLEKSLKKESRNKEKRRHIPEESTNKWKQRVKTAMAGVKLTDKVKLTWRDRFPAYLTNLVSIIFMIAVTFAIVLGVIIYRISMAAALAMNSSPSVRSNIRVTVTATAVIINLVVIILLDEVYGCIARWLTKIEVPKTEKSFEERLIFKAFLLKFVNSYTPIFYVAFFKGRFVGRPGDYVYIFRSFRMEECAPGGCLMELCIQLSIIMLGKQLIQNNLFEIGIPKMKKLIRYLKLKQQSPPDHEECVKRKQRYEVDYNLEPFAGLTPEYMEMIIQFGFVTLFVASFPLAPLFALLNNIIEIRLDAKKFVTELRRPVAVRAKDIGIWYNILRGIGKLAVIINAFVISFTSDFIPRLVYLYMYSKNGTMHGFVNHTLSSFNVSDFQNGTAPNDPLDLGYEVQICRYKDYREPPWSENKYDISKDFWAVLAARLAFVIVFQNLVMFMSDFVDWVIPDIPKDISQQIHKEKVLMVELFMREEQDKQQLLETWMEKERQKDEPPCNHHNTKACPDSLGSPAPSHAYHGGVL", "UniProt P28566, sequence (whole entry, looked up)": "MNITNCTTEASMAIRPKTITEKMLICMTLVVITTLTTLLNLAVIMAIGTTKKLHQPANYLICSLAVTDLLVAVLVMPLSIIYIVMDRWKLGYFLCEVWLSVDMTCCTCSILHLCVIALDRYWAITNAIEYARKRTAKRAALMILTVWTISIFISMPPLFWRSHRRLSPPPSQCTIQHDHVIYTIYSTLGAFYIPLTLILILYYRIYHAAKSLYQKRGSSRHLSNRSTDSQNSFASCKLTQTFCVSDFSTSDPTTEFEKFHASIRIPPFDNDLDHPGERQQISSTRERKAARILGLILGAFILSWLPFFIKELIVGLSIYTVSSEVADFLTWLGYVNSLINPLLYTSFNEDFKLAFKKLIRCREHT"}
{"data": "Sample 1", "SMILES": "C=CCc1ccc(O)c(-c2cc(CC=C)ccc2O)c1", "observed": "chloride current", "method": "whole-cell voltage clamp"}
{"target": "Anoctamin-1 (ANO1, Homo sapiens, UniProt Q5XXA6, del476-501/E649K)", "mode": "inhibitor", "setting": "E623K mutant at -80 mV", "IC50 [µM]": 185}
{"target": "Anoctamin-1 (ANO1, Homo sapiens, UniProt Q5XXA6, del476-501/M544T)", "mode": "inhibitor", "setting": "mutant M518T", "IC50 [µM]": 31.9}
{"target": "Anoctamin-1 (ANO1, Homo sapiens, UniProt Q5XXA6, del476-501/E649I)", "mode": "inhibitor", "setting": "E623I mutant at -100 mV", "IC50 [µM]": 142}
{"target": "Anoctamin-1 (ANO1, Homo sapiens, UniProt Q5XXA6, del476-501/R541K)", "mode": "inhibitor", "setting": "R515K mutant at -40 mV", "IC50 [µM]": 17.1}
{"target": "Anoctamin-1 (ANO1, Homo sapiens, UniProt Q5XXA6, del476-501/R541I)", "mode": "inhibitor", "setting": "mutant R515I", "IC50 [µM]": 134}
{"target": "Anoctamin-1 (ANO1, Homo sapiens, UniProt Q5XXA6, del476-501/E650A)", "setting": "membrane voltage -80 mV", "IC50 [µM]": 29.3}
{"target": "Anoctamin-1 (ANO1, Homo sapiens, UniProt Q5XXA6, del476-501/R561A)", "setting": "membrane voltage -100 mV", "IC50 [µM]": 46.8}
{"target": "Anoctamin-1 (ANO1, Homo sapiens, UniProt Q5XXA6, del476-501/K629D)", "mode": "inhibitor", "concentration": "100 mV holding voltage", "IC50 [µM]": 240}
{"target": "Anoctamin-1 (ANO1, Homo sapiens, UniProt Q5XXA6, del476-501/F807A)", "setting": "membrane voltage 100 mV", "IC50 [µM]": 21.3}
{"target": "Anoctamin-1 (ANO1, Homo sapiens, UniProt Q5XXA6, del476-501/F803A)", "setting": "membrane voltage 60 mV", "IC50 [µM]": 18.1}
{"data": "Sample 2", "organism": "Sarcocystis neurona", "observed": "parasite growth", "concentration": "10 µM", "time": "96 h", "setting": "second screen", "reference": "untreated"}
{"SMILES": "N[C@@H](Cc1cc(I)c(Oc2cc(I)c(O)c(I)c2)c(I)c1)C(=O)O", "log2 fold change": 0.6}
{"SMILES": "CN(C)CCCN1c2ccccc2CCc2ccc(Cl)cc21", "log2 fold change": 0.46}
{"SMILES": "Cc1ncc([N+](=O)[O-])n1CC(O)CCl (stereo not shown)", "log2 fold change": 0.18}
{"SMILES": "NC12CC3CC(CC(C3)C1)C2", "log2 fold change": 0.27}
{"SMILES": "CC(=O)OCC(=O)[C@@]1(O)CC[C@H]2[C@@H]3CCC4=CC(=O)CC[C@]4(C)[C@H]3C(=O)C[C@@]21C", "log2 fold change": 0.0272}
{"SMILES": "CN1CC(=O)N2[C@H](c3ccc4c(c3)OCO4)c3[nH]c4ccccc4c3C[C@@H]2C1=O", "log2 fold change": 0.59}
{"SMILES": "C[C@H]1C[C@H]2[C@@H]3CCC4=CC(=O)C=C[C@]4(C)[C@@]3(F)[C@@H](O)C[C@]2(C)[C@@]1(O)C(=O)CO", "log2 fold change": 0.59}
{"SMILES": "CN1CCN(C2=Nc3cc(F)ccc3Cc3ccccc32)CC1", "log2 fold change": 0.29}
{"SMILES": "Nc1c2c(nc3c1CCC3)CCCC2", "log2 fold change": 0.23}
{"SMILES": "CCC(=O)OCC(=O)[C@@]1(OC(=O)CC)[C@@H](C)C[C@H]2[C@@H]3CCC4=CC(=O)C=C[C@]4(C)[C@@]3(Cl)[C@@H](O)C[C@@]21C", "log2 fold change": 0.38}
{"data": "Sample 3", "SMILES": "CC(C)n1cnc(-c2ccc(F)cc2)c1-c1ncc(C(=O)Nc2ccc(N3CCN(C)CC3)cc2)[nH]1", "method": "phase 2a trial", "host": "idiopathic pulmonary fibrosis patients", "dose": "all dose arms pooled"}
{"setting": "grade 5", "patients with eye swelling": "0%"}
{"setting": "grade 3", "patients with eye swelling": "0%"}
{"setting": "grade 4", "patients with eye swelling": "0%"}
{"setting": "grade 2", "patients with eye swelling": "0%"}
{"data": "Other studies, line by line"}
{"SMILES": "CCOc1ccc(S(=O)(=O)Nc2ccc(Cl)cc2C#Cc2cnc(C(=O)O)cc2OC)c2ncccc12", "target": "5-hydroxytryptamine receptor 1E (HTR1E, Homo sapiens, UniProt P28566)", "observed": "binding", "method": "radioligand binding", "measurement": "Ki", "result": "> 10 µM"}
{"note": "Some of these lines once more (sample 1):"}
{"target": "Anoctamin-1 (ANO1, Homo sapiens, UniProt Q5XXA6, del476-501/R541K)", "mode": "inhibitor", "setting": "R515K mutant at -40 mV", "IC50 [µM]": 17.1}
{"target": "Anoctamin-1 (ANO1, Homo sapiens, UniProt Q5XXA6, del476-501/R541I)", "mode": "inhibitor", "setting": "mutant R515I", "IC50 [µM]": 134}
{"target": "Anoctamin-1 (ANO1, Homo sapiens, UniProt Q5XXA6, del476-501/E650A)", "setting": "membrane voltage -80 mV", "IC50 [µM]": 29.3}
